Results collected from several papers.
Protocols differ between the studies behind these lines. “And” joins repeats or separate records; there may be more than shown. ± marks the error that the study gave.
Cell line: MCF7

SMILES = COc1cc2c(cc1OC)C(=O)C(=Cc1ccc(N3CCN(C)CC3)cc1)C2; assay = cell viability, MTT; conditions = 48 h; measurement = LD50; value = 24.2 µM
SMILES = CC=C(C)C(=O)OC1C2COC(=O)CCC(=O)CCCCCCC(CCCCC)OC3OC(C)C(OC(C)=O)C(O)C3OC(O2)C(O)C1OC(=O)C(C)=CC (centres unmarked); assay = cytotoxicity; measurement = IC50; value = 3.93 µM
SMILES = CCCCn1cc(C(=O)O)c(=O)c2cc(F)c3c(nnn3-c3cccc(Cl)c3)c21; assay = cell growth or viability, SRB; measurement = IC50; value = 54.2 µM
SMILES = CC=C(C)C(=O)OC1C(O)C2COC(=O)CCC(=O)CCCCCCC(CCCCC)OC3OC(C)C(OC(C)=O)C(O)C3OC(O2)C1O (centres unmarked); assay = cytotoxicity; measurement = IC50; value = 9.09 µM
SMILES = O=C(CCc1ccccc1)NOC(=O)OCc1ccccc1; conditions = 25 µM; measurement = viability; value = > 98%
SMILES = N=C(N)NCCC[C@H](NC(=O)[C@@H]1CCCN1C(=O)[C@H](CC(N)=O)NC(=O)[C@H](Cc1ccccc1)NC(=O)[C@H](Cc1c[nH]cn1)NC(=O)[C@H](Cc1ccccc1)NC(=O)[C@H](Cc1ccccc1)NC(=O)Cc1ccc2ccccc2c1)C(=O)O; test system = cell lysate; conditions = 200 µM, 1 h; measurement = remaining peptide; value = 39%
SMILES = CCCCn1cc(C(=O)O)c(=O)c2cc(F)c(Nc3cccc(Cl)c3)c(N)c21; assay = cell growth or viability, SRB; measurement = IC50; value = 22 µM and 21.6 µM
SMILES = CC(C)C[C@@H]1NC(=O)[C@@H](Cc2c[nH]c3ccccc23)NC(=O)[C@H](CCCNC(=N)N)NC(=O)[C@@H](CCC(=O)O)NC(=O)[C@H](CCC(N)=O)NC(=O)[C@@H](CCC(=O)O)NC(=O)[C@H](CCCNC(=N)N)NC(=O)[C@@H](Cc2c[nH]c3ccccc23)NC1=O; assay = cytotoxicity; measurement = CC50; value = > 40 µM
SMILES = CCCCn1cc(C(=O)O)c(=O)c2cc(F)c(Nc3cccc(Cl)c3)c([N+](=O)[O-])c21; assay = cell growth or viability, SRB; measurement = IC50; value = 2.6 µg/mL
SMILES = CC(C)C[C@@H]1NC(=O)[C@@H](Cc2c[nH]c3ccccc23)NC(=O)[C@H](CCCN)NC(=O)[C@@H](CO)NC(=O)[C@H](CCC(N)=O)NC(=O)[C@@H](CCC(=O)O)NC(=O)[C@H](CO)NC(=O)[C@@H](Cc2c[nH]c3ccccc23)NC1=O; assay = cytotoxicity; measurement = CC50; value = > 40 µM
SMILES = CC[C@H](C)[C@@H]1NC(=O)[C@H](CCCCN)NC(=O)[C@H](CCCCN)NC(=O)[C@H](Cc2ccc(O)cc2)NC(=O)[C@H](CC(C)C)NC(=O)[C@@H]2CCCN2C(=O)[C@H](C)NC(=O)CNC(=O)CNC(=O)[C@H](CO)NC(=O)CNC(=O)CNC(=O)[C@H](CO)NC(=O)[C@H](CCC(=O)O)NC(=O)[C@H](CC(C)C)NC(=O)[C@H](CC(C)C)NC(=O)[C@H](CCCCN)NC(=O)[C@H](CCCCN)NC(=O)[C@H]([C@@H](C)CC)NC(=O)[C@H]([C@@H](C)CC)NC(=O)[C@H](CCCCN)NC(=O)[C@H](CCCCN)NC(=O)[C@H](Cc2ccc(O)cc2)NC(=O)[C@H](CC(C)C)NC(=O)[C@@H]2CCCN2C(=O)CNC(=O)CNC(=O)CSC[C@@H](C(N)=O)NC(=O)[C@H](CC(C)C)NC(=O)[C@H](CCCCN)NC(=O)[C@H](CCCCN)NC(=O)[C@H]([C@@H](C)CC)NC1=O; assay = cell viability, resazurin; conditions = 24 h; measurement = CC50; value = 16.9 ± 0.8 µM
